Results from different studies.
Lines come from different studies, so protocols differ. Numbers after ± are the reported error.
Cell line: HCT-116

`Cc1c(C)c(C)[c-](C)c1C.Cc1ccnc(-c2[c-]cccc2)c1.[Cl-].[Ir+3]` gave an IC50 of 9.6 ± 0.6 µM (SRB; 24 h, 72 h recovery).
For `CCN1CCC2(CC1)C/C(=N\NC(=O)Nc1ccc(Cl)cc1)c1ccccc1O2`, the IC50 was 21.7 ± 0.88 µM (48 h).
For `O=C(CCc1nc2cc(Cl)ccc2[nH]c1=O)NN1C(=O)c2ccccc2C1=O`, the IC50 was 37.2 µM (cell growth or viability, MTT).
For `Cc1cc(C)c([N+]#[C][Pt-]([Cl])([Cl])=[C](Nc2ccc(CN[C](Nc3c(C)cc(C)cc3C)=[Au][Cl])cc2)Nc2c(C)cc(C)cc2C)c(C)c1`, the IC50 was 14 µM (cell growth or viability).
With `O=c1[nH]c2ccccc2nc1/C=C/c1ccccc1Br` the IC50 was 12.3 µM (cell growth or viability, MTT; 72 h).
`O=c1c(Cc2ccccc2)nc2ccccc2n1Cc1cn(-c2ccc(S(=O)(=O)Nc3ncccn3)cc2)nn1` has an IC50 of 0.217 µM (cell growth or viability, MTT; 72 h).
`O=C1c2ccccc2C2C(=O)c3ccccc3OC12` (stereo not shown) has an IC50 of 25.1 µg/mL (cell growth or viability, resazurin; 96 h).
For `Cc1c(C)c(C)[c-](C)c1C.O=[N+]([O-])c1ccnc(-c2[c-]cccc2)c1.[Cl-].[Ir+3]`, the IC50 was 27.5 ± 0.9 µM (SRB; 24 h, 72 h recovery).
For `CN1CCN(c2ccc(Nc3nccc(-c4cn(C5CCCC5)nn4)n3)cc2)CC1`, the IC50 was 6.68 µM (cell growth or viability, SRB; 72 h).
The IC50 of `O=C(NCCNc1n[n+]([O-])c2ccccc2[n+]1[O-])C(F)(F)F` is reported as 33.8 ± 13.1 µM (cytotoxicity, MTT; 10% FBS medium; 6 h + 18 h, hypoxia 3% O2).
With `Cc1cc(N2CCN(C(=O)CN3CCN(C)CC3)CC2)n2ncnc2n1` the IC50 was 65.8 µM (cell growth or viability, MTT).
The IC50 of `CO[C@@H]1[C@@H](O[C@@H]2O[C@H](C)[C@@H](O[C@H]3C[C@@](C)(O)[C@@H](OC(=O)CN4CCOCC4)[C@H](C)O3)[C@H](N(C)C)[C@H]2O)[C@@H](CC=O)C[C@@H](C)[C@@H](O[C@H]2CC[C@H](N(C)C)[C@@H](C)O2)/C=C/C=C/C[C@@H](C)OC(=O)C[C@H]1O` is reported as 8 µM (cell growth or viability, CCK-8; 72 h).
The IC50 of `OC[C@H]1[C@@H](O)[C@@H](O)CN1Cc1ccc(Br)cc1` is reported as over 200 µM (cell growth or viability, MTS; 72 h).
`CC(C)c1cccc(C(C)C)c1[N+]#[C][Pt-]([Cl])([Cl])=[C](Nc1ccc(CN[C](Nc2c(C(C)C)cccc2C(C)C)=[Au][Cl])cc1)Nc1c(C(C)C)cccc1C(C)C` has an IC50 of over 100 µM (cell growth or viability).
`CS/C(=N\N=C(/C)c1ccc(S(=O)(=O)N2CCC(C)CC2)cc1)N1CCCCC1` has an IC50 of 38.7 µM (cell growth or viability, MTT).
With `N=C(N)NCCC[C@H](N)C(=O)N[C@@H](Cc1ccc(O)cc1)C(=O)N[C@@H](Cc1c[nH]c2ccccc12)C(=O)N[C@@H](Cc1ccc(O)cc1)C(=O)NCC(N)=O` the IC50 was over 100 µM.
With `NC(=S)NNC(=O)c1cc2c(ccc3ccccc32)oc1=O` the IC50 was 3.5 µM (cell growth or viability, SRB; 72 h).
`CC(C)Cn1cc(-c2ccnc(Nc3ccc(N4CCN(CCCCCCC(=O)NO)CC4)cc3)n2)nn1` has an IC50 of 3.53 µM (cell growth or viability, SRB; 72 h).
The IC50 of `CCN1CCC2(CC1)C/C(=N\N=C\c1ccc(O)cc1)c1ccccc1O2` is reported as 49.5 ± 2.1 µM (48 h).
`CCCCSc1nc(N)c2c(F)c(C#N)c(F)c(F)c2n1` gave an IC50 of 6.32 µM (cell growth or viability, MTT; 96 h).
The IC50 of `Cc1cc(C)c([N+]#[C][Pt-2]([Cl])([Cl])[C]#[N+]c2c(C)cc(C)cc2C)c(C)c1` is reported as 1 µM (cell growth or viability).
`O=C(NCCCCCCCNc1n[n+]([O-])c2ccccc2[n+]1[O-])C(F)(F)F` has an IC50 of 47.5 µM (cytotoxicity, MTT; 24 h, hypoxia).
`COc1ccc(NC(=O)c2ccc(NC(=O)CN3C(=O)S/C(=C\c4ccccc4OC)C3=O)cc2)cc1` has an IC50 of 28.9 µM (cell growth or viability, MTT).
With `CO[C@@H]1[C@@H](O[C@@H]2O[C@H](C)[C@@H](O[C@H]3C[C@@](C)(O)[C@@H](OC(=O)c4ccccc4)[C@H](C)O3)[C@H](N(C)C)[C@H]2O)[C@@H](CC=O)C[C@@H](C)[C@@H](O[C@H]2CC[C@H](N(C)C)[C@@H](C)O2)/C=C/C=C/C[C@@H](C)OC(=O)C[C@H]1O` the IC50 was 9.21 µM (cell growth or viability, CCK-8; 72 h).
`NC(=S)NNC(=O)c1cc2ccc(O)cc2oc1=O` gave an IC50 of 7.5 µM (cell growth or viability, SRB; 72 h).
`NOCC(=O)O` has an IC50 of about 300 µM (cell growth or viability; 48 h).
`CCN1CCC2(CC1)C/C(=N\NC(=O)Nc1ccc(OC)cc1)c1ccccc1O2` gave an IC50 of 19.7 ± 0.84 µM (48 h).
`COc1ccc(NC(=O)CCc2nc3cc(Cl)ccc3[nH]c2=O)cc1` has an IC50 of 5.81 µM (cell growth or viability, MTT).
For `COc1ccc(-c2nc(SCCOC(=O)[C@]3(C)CCC[C@]4(C)c5ccc(C(C)C)cc5CCC34)nc(O)c2C#N)cc1` (stereo partly shown), the IC50 was 9.53 to 19.4 µM (cell growth or viability, MTT; 48 h).
For `COc1cc2c(=O)c(-c3ccc4c(c3)OCO4)coc2c2c1OC(C)(C)C=C2`, the IC50 was 15.1 µM (cell growth or viability, MTT; 72 h).
`COc1ccc(NC(=O)c2c(Nc3ccccc3)sc(C(=O)N/N=C/c3ccc(OC)c(OC)c3)c2NC(C)=O)cc1` has an IC50 of 5.33 µM (cell growth or viability, SRB; 48 h).
For `O=C(NCCCCCNc1n[n+]([O-])c2ccccc2[n+]1[O-])C(F)(F)F`, the IC50 was 44.1 ± 10.2 µM (cytotoxicity, MTT; 10% FBS medium; 6 h + 18 h, hypoxia 3% O2).
The IC50 of `CC(C)c1cccc(C(C)C)c1[N+]#[C][Pt-2]([Cl])([Cl])[C]#[N+]c1c(C(C)C)cccc1C(C)C` is reported as 0.6 µM (cell growth or viability).
The IC50 of `N#Cc1c(F)c(Cl)c2nc(SCC3CCCO3)nc(N)c2c1F` (stereo not shown) is reported as 4.39 µM (cell growth or viability, MTT; 96 h).
The IC50 of `COC(=O)[C@H](CC(C)C)NC(=O)CNC(=O)COc1ccc2c(C)cc(=O)oc2c1` is reported as 61 µM (cell growth or viability, MTT).
The IC50 of `CO[C@@H]1[C@@H](O[C@@H]2O[C@H](C)[C@@H](O[C@H]3C[C@@](C)(O)[C@@H](OC(=O)C4CCCCC4)[C@H](C)O3)[C@H](N(C)C)[C@H]2O)[C@@H](CC=O)C[C@@H](C)[C@@H](O[C@H]2CC[C@H](N(C)C)[C@@H](C)O2)/C=C/C=C/C[C@@H](C)OC(=O)C[C@H]1O` is reported as 13 µM (cell growth or viability, CCK-8; 72 h).
With `CC(C)c1cccc(C(C)C)c1[N+]#[C][Pd-]([Cl])([Cl])=[C](Nc1cccc(CN[C](NC(C)(C)C)=[Au][Cl])c1)Nc1c(C(C)C)cccc1C(C)C` the IC50 was over 100 µM (cell growth or viability).
`CC12CCCC(n3cc(C(=O)N4CCC(N)CC4)nn3)(C1)C1CC(C)(C)C1CC2` (stereo not shown) gave an IC50 of 14.3 µM (cell growth or viability, CCK-8; 72 h).
`CSc1nc(Nc2ccc(/C(C)=N/NC(=O)c3cccc(Cl)c3)cc2)c(C#N)c(-c2ccccc2)n1` gave an IC50 of 10.5 µM (cell growth or viability, MTT; 48 h).
`C/C(=N\NC(=S)SCc1ccccc1)c1ccc(S(=O)(=O)N2CCC(C)CC2)cc1` has an IC50 of 117 µM (cell growth or viability, MTT).
`C=C(C)[C@@H]1CC[C@]2(C(=O)OCO/N=[N+](\[O-])N3CCCC3)CC[C@]3(C)[C@H](CC[C@@H]4[C@@]5(C)CC[C@H](OC(C)=O)C(C)(C)[C@@H]5CC[C@]43C)[C@@H]12` has an IC50 of 1.53 µM (cell growth or viability, MTT; 72 h).
`CSc1nc(Nc2cccc(/C(C)=N/NC(=O)c3ccc(O)cc3)c2)c(C#N)c(-c2ccccc2)n1` gave an IC50 of 21.4 µM (cell growth or viability, MTT; 48 h).
For `CN(C)CCCS(=O)(=O)NC12CCCC(C)(CCC3C1CC3(C)C)C2` (stereo not shown), the IC50 was 28.1 µM (cell growth or viability, CCK-8; 72 h).
`COc1cc(-c2ccc(C(=O)N/N=C/c3ccc(N(C)C)cc3)c(C)n2)cc(OC)c1OC` has an IC50 of 30.2 µM (cell growth or viability, MTT).
With `CCCCCC(=O)O[C@H]1[C@H](C)O[C@@H](O[C@H]2[C@H](N(C)C)[C@@H](O)[C@H](O[C@H]3[C@@H](CC=O)C[C@@H](C)[C@@H](O[C@H]4CC[C@H](N(C)C)[C@@H](C)O4)/C=C/C=C/C[C@@H](C)OC(=O)C[C@@H](O)[C@@H]3OC)O[C@@H]2C)C[C@@]1(C)O` the IC50 was 38.5 µM (cell growth or viability, CCK-8; 72 h).
With `C=CCNC(=O)CNC(=O)CCn1nc(Cc2ccccc2)c2ccccc2c1=O` the IC50 was 7.98 µM (cell growth or viability, MTT; 48 h).
With `Cc1cc(C)c([N+]#[C][Pt-]([Cl])([Cl])=[C](Nc2cccc(CN[C](Nc3c(C)cc(C)cc3C)=[Au][Cl])c2)Nc2c(C)cc(C)cc2C)c(C)c1` the IC50 was over 100 µM (cell growth or viability).
`CSc1nc(Nc2ccc(/C(C)=N/NC(=O)c3ccccc3Cl)cc2)c(C#N)c(-c2ccccc2)n1` has an IC50 of 10.7 µM (cell growth or viability, MTT; 48 h).
`C/C(=N\N=C1/NC(=O)CS1)c1c(O)c2ccccc2oc1=O` has an IC50 of 9.5 µM (cell growth or viability, MTT; 48 h).
`CCCCCCCCSc1nc(N)c2c(F)c(C#N)c(F)c(F)c2n1` has an IC50 of 55.1 µM (cell growth or viability, MTT; 96 h).
`O=C(COC(=O)CCCn1c(=O)oc2cc([N+](=O)[O-])ccc21)Nc1cccc(Cl)c1` gave an IC50 of 77.3 µM (cell growth or viability, MTT; 36 h).
`Cc1cc(C)c([N+]#[C][Pt-]([Cl])([Cl])=[C](Nc2cccc(CN[C](NC(C)(C)C)=[Au][Cl])c2)Nc2c(C)cc(C)cc2C)c(C)c1` gave an IC50 of over 100 µM (cell growth or viability).
`O=c1c(Cc2ccccc2)nc2ccccc2n1-c1ccc([N+](=O)[O-])cc1[N+](=O)[O-]` has an IC50 of 0.463 µM (cell growth or viability, MTT; 72 h).
For `Cc1ccc2nc(NC(=O)Cn3cc(COc4ccc(/C=N/Nc5cc([N+](=O)[O-])cc([N+](=O)[O-])c5)cc4)nn3)sc2c1`, the IC50 was 167 µM (cell growth or viability, MTT; 48 h).
For `Cc1c(C(=O)NNC(=S)Nc2ccc(Cl)cc2)nnn1Cc1nc2ccccc2[nH]1`, the IC50 was 8.34 ± 0.6 µM (48 h).

Excerpt of the above:
The IC50 of `O=C(NCCNc1n[n+]([O-])c2ccccc2[n+]1[O-])C(F)(F)F` is reported as 33.8 ± 13.1 µM (cytotoxicity, MTT; 10% FBS medium; 6 h + 18 h, hypoxia 3% O2).
`COc1ccc(NC(=O)c2c(Nc3ccccc3)sc(C(=O)N/N=C/c3ccc(OC)c(OC)c3)c2NC(C)=O)cc1` has an IC50 of 5.33 µM (cell growth or viability, SRB; 48 h).
For `Cc1cc(C)c([N+]#[C][Pt-]([Cl])([Cl])=[C](Nc2ccc(CN[C](Nc3c(C)cc(C)cc3C)=[Au][Cl])cc2)Nc2c(C)cc(C)cc2C)c(C)c1`, the IC50 was 14 µM (cell growth or viability).
